# Experimental data from different studies.
# “And” joins repeats or separate records; there may be more than shown. ± marks the error that the study gave.
# POLB: DNA polymerase beta (POLB, Homo sapiens, UniProt P06746)
# SCTR: Secretin receptor (SCTR, Homo sapiens, UniProt P47872)
# T1: ssRNA FMR1 5' UTR CGG repeat (Homo sapiens); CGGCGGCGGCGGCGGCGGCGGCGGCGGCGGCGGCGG
Compound,target,test,system,setting,how to read,endpoint,result
Nc1nc2c(ncn2C2CC(O)C(COP(=O)(O)OP(=O)(O)C(Br)P(=O)(O)O)O2)c(=O)[nH]1 (mixture of isomers),POLB,"nucleotide incorporation rate, substrate, single-turnover kinetics",single-nucleotide gapped DNA,"37 °C, wild type, misincorporation, with: dGTP opposite template A",,kpol,0.0026 ± 0.0003 s⁻¹
COc1ccc(-c2cc(C(F)(F)F)nc(S(=O)(=O)CCCC(=O)Nc3ccccc3F)n2)cc1OC,SCTR,"increase of tracer binding, TR-FRET",HEK293 membranes,with: Fluo-Sec 6 nM,,Emax,148 ± 13%
CC(=O)N[C@@H]1[C@@H](O[C@@H]2O[C@H](C(=O)O)[C@@H](O[C@@H]3O[C@H](COS(=O)(=O)O)[C@@H](OS(=O)(=O)O)[C@H](O[C@@H]4O[C@H](C(=O)O)[C@@H](OS(=O)(=O)O)[C@H](OS(=O)(=O)O)[C@H]4OS(=O)(=O)O)[C@H]3NC(C)=O)[C@H](OS(=O)(=O)O)[C@H]2OS(=O)(=O)O)[C@H](OS(=O)(=O)O)[C@@H](COS(=O)(=O)O)O[C@H]1SCCOCCOCCSSCCOCCOCCS[C@@H]1O[C@H](COS(=O)(=O)O)[C@@H](OS(=O)(=O)O)[C@H](O[C@@H]2O[C@H](C(=O)O)[C@@H](O[C@@H]3O[C@H](COS(=O)(=O)O)[C@@H](OS(=O)(=O)O)[C@H](O[C@@H]4O[C@H](C(=O)O)[C@@H](OS(=O)(=O)O)[C@H](OS(=O)(=O)O)[C@H]4OS(=O)(=O)O)[C@H]3NC(C)=O)[C@H](OS(=O)(=O)O)[C@H]2OS(=O)(=O)O)[C@H]1NC(C)=O,"Interleukin-8 (CXCL8, Homo sapiens, UniProt P10145)",isothermal titration calorimetry,,"concentration not given, protein 10 µM, monomer",,binding stoichiometry,0.2
Nc1nc2c(ncn2C2CC(O)C(COP(=O)(O)OP(=O)(O)C(Cl)P(=O)(O)O)O2)c(=O)[nH]1 (mixture of isomers),POLB,"nucleotide incorporation rate, substrate, single-turnover kinetics",single-nucleotide gapped DNA,"37 °C, wild type, misincorporation, with: dGTP opposite template A",,kpol,0.007 ± 0.002 s⁻¹
CCCN(CC(=O)N(CCC)CC(=O)N(CCC)CC(=O)N(CCC)CC(=O)N(CCC)CC(=O)N(CC(N)=O)Cc1cn(CCCNC(=O)CCCOc2cccc(-c3nc4ccc(-c5nc6ccc(N7CCN(C)CC7)cc6[nH]5)cc4[nH]3)c2)nn1)C(=O)CNCc1cn(CCCNC(=O)CCCOc2cccc(-c3nc4ccc(-c5nc6ccc(N7CCN(C)CC7)cc6[nH]5)cc4[nH]3)c2)nn1,"T1, ssRNA FMR1 5' UTR CGG repeat (Homo sapiens)","protein displacement, competitor, TR-FRET",,,,IC50,18 µM
CNc1ccccc1C(=O)O[C@H]1C[C@H](n2cnc3c(N)ncnc32)O[C@@H]1COP(=O)(O)OP(=O)(O)O,"Unconventional myosin-Va (Gallus gallus, UniProt Q02440, D297C/G292C/I296C/S293C/V295G)",stopped-flow FRET,,"10 °C, with: MgCl2 2 mM",,association rate constant,2.65 ± 0.05 µM⁻¹ s⁻¹
COc1ccc(-c2cc(C(F)(F)F)nc(NCc3ccc(F)cc3)n2)cc1OC,SCTR,"cAMP, agonist",,,,Emax,15%
CC1(C)C(/C=C/C2=C(Oc3ccc(CCC(=O)N[C@@H](CSC4CC(=O)N(CCNC(=O)CN5CCN(CC(=O)O)CCN(CC(=O)O)CCN(CC(=O)O)CC5)C4=O)C(=O)NCCCC[C@@H]4NC(=O)[C@@H](Cc5ccc(O)cc5)NC(=O)[C@H](CC(=O)O)NC(=O)CNC(=O)[C@H](CCCNC(=N)N)NC4=O)cc3)C(=C/C=C3/N(CCC[N+](C)(C)C)c4ccc(S(=O)(=O)O)cc4C3(C)C)/CCC2)=[N+](CCC[N+](C)(C)C)c2ccc(S(=O)(=O)O)cc21 (some centres unmarked),integrin αvβ3,"dynamic optical imaging, SVD, Logan","female athymic nude mouse, MDA-MB-435 xenograft","dose not given, 60 min, unit not given",reference: muscle,binding potential,1.76 ± 0.02
CSCC[C@H](NC(=O)[C@H](CO)NC(=O)[C@@H](NC(=O)[C@H](CCC(N)=O)NC(=O)[C@@H](CCCNC(=N)N)NC(=O)[C@@H](CCCNC(=N)N)NC(=O)[C@@H](CCCCN)NC(=O)[C@@H](CCCNC(=N)N)NC(C)=O)[C@@H](C)O)C(=O)N[C@H](C(=O)N[C@@H](CC(=O)O)C(=O)N[C@@H](Cc1ccccc1)C(=O)N[C@@H](Cc1ccc(O)cc1)C(=O)N[C@@H](Cc1c[nH]cn1)C(=O)N[C@@H](CO)C(=O)N[C@H](CCCCN)C(=O)N[C@H](CCCNC(=N)N)C(=O)N[C@H](CCCNC(=N)N)C(N)=O)[C@@H](C)O,"PCNA (Homo sapiens, UniProt P12004)",isothermal titration calorimetry,,"concentration not given, pH 7.4, 25 °C, 0 mM NaCl, with: p21 peptide",,binding stoichiometry,0.66 ± 0.04
CCCCCCCCc1ccc(Oc2ccccc2)c(O)c1,"Enoyl-[acyl-carrier-protein] reductase [NADPH] FabI (Staphylococcus aureus, UniProt Q6GI75)","enzyme activity, inhibitor, progress curve kinetics",,,,dissociation rate constant,2.03 h⁻¹
CC1(C)CCN(Cc2ccc(C(=O)NC[C@]3(O)CCCN(c4cc(NCc5ccccc5)ncn4)C3)c(O)c2)CC1,"Cyclin-dependent kinase 2, with cyclin A (CDK2, Homo sapiens, UniProt P24941)","kinase activity, radiometric",,"10 µM, with: 10 µM ATP",,remaining activity,72%
CCC(c1nnnn1Cc1cccs1)N1CCN(c2nc3cc(N)cc(F)c3s2)CC1 (centres unmarked),"Deoxyribonuclease-1 (DNASE1, Bos taurus, UniProt P00639)","enzyme activity, inhibitor",,,,inhibition onset concentration,> 23 µM
O=C(c1cccc(-c2cc(NCCO)ncn2)c1)N1CCCC1c1ccccc1 (centres unmarked),"DNA dC->dU-editing enzyme APOBEC-3A (Homo sapiens, UniProt P31941)","binding, 1H CPMG NMR",,,,signal attenuation,23.9 ± 11.3%
COc1ccc(-c2cc(C(F)(F)F)nc(S(=O)(=O)CCC(=O)Nc3ccc(C)cc3)n2)cc1,"WRN (Homo sapiens, UniProt Q14191)",intact protein mass spectrometry,,"overnight, 4 °C, at least one cysteine alkylated, with: 10-fold compound excess",,alkylated protein,~86% and ~85%

# Repeated from above:
Compound,target,test,system,setting,how to read,endpoint,result
CCCN(CC(=O)N(CCC)CC(=O)N(CCC)CC(=O)N(CCC)CC(=O)N(CCC)CC(=O)N(CC(N)=O)Cc1cn(CCCNC(=O)CCCOc2cccc(-c3nc4ccc(-c5nc6ccc(N7CCN(C)CC7)cc6[nH]5)cc4[nH]3)c2)nn1)C(=O)CNCc1cn(CCCNC(=O)CCCOc2cccc(-c3nc4ccc(-c5nc6ccc(N7CCN(C)CC7)cc6[nH]5)cc4[nH]3)c2)nn1,"T1, ssRNA FMR1 5' UTR CGG repeat (Homo sapiens)","protein displacement, competitor, TR-FRET",,,,IC50,18 µM
